Published values pooled from the literature.
Lines come from different studies, so protocols differ. Numbers after ± are the reported error.

| Compound | test | test system | setting | how to read | endpoint | value |
| --- | --- | --- | --- | --- | --- | --- |
| N=C(N)NCCC[C@@H]1NC(=O)[C@H](CCCCNC(=O)CNC(=O)CNC(=O)CNC(=O)CC[C@H](NC(=O)CNC(=O)CNC(=O)CNC(=O)CC[C@H](NC(=O)CN2CCN(CC(=O)O)CCN(CC(=O)O)CCN(CC(=O)O)CC2)C(=O)NCC(=O)NCC(=O)NCC(=O)N[C@@H](CCC(=O)NCC(=O)NCC(=O)NCC(=O)NCCCC[C@@H]2NC(=O)[C@@H](Cc3ccccc3)NC(=O)[C@H](CC(=O)O)NC(=O)CNC(=O)[C@H](CCCNC(=N)N)NC2=O)C(=O)NCC(=O)NCC(=O)NCC(=O)NCCCC[C@@H]2NC(=O)[C@@H](Cc3ccccc3)NC(=O)[C@H](CC(=O)O)NC(=O)CNC(=O)[C@H](CCCNC(=N)N)NC2=O)C(=O)NCC(=O)NCC(=O)NCC(=O)NCCCC[C@@H]2NC(=O)[C@@H](Cc3ccccc3)NC(=O)[C@H](CC(=O)O)NC(=O)CNC(=O)[C@H](CCCNC(=N)N)NC2=O)NC(=O)[C@@H](Cc2ccccc2)NC(=O)[C@H](CC(=O)O)NC(=O)CNC1=O [indium-111 labelled] | – | female athymic nu/nu mice, brain | intravenous, 24 h | – | tissue uptake | 0.12 ± 0.07 %ID/g |
| Cc1cc(-c2ccc(NC(=O)[C@H](CCCCNC(=O)CCOCCOCCC(=O)N[C@H](Cc3ccccc3)C(=O)N[C@H]3CSSC[C@@H](C(=O)N[C@H](C(=O)O)[C@@H](C)O)NC(=O)[C@H]([C@@H](C)O)NC(=O)[C@H](CCCCN)NC(=O)[C@@H](Cc4c[nH]c5ccccc45)NC(=O)[C@H](Cc4ccc(O)cc4)NC3=O)NC(=O)CN3CCN(CC(=O)O)CCN(CC(=O)O)CCN(CC(=O)O)CC3)c(C)c2)ccc1N=Nc1ccc2c(S(=O)(=O)O)cc(S(=O)(=O)O)c(N)c2c1O [lutetium-177 labelled] | – | patients with metastatic NETs, liver metastases | – | baseline: cpd over 177Lu-EB-TATE | absorbed dose ratio | 4 fold |
| CC(C)C[C@H](NC(=O)[C@H](Cc1ccc(O)cc1)NC(=O)[C@@H](CCCNC(=N)N)NC(=O)[C@@H](CO)NC(=O)[C@H](Cc1ccccc1)NC(=O)[C@H](CC1CCCCC1)NC(=O)[C@H](CC(=O)O)NC(=O)CN1CCCN2CCN(CCCN(CC(=O)O)CC2)CC1)C(=O)N[C@@H](Cc1c[nH]c2ccccc12)C(=O)N[C@@H](CO)C(=O)O [copper-64 labelled] | – | female NMRI nude mice, liver | 1 h p.i. | – | tissue uptake | 11.2 ± 1.2 %ID/g |
| CCCC[C@H](NC(=O)CNC(=O)CNC(=O)CN1CCN(CC(=O)O)CCN(CC(=O)O)CCN(CC(=O)O)CC1)C(=O)N[C@H]1CC(=O)NCCCC[C@@H](C(N)=O)NC(=O)[C@H](Cc2c[nH]c3ccccc23)NC(=O)[C@H](CCCNC(=N)N)NC(=O)[C@@H](Cc2ccccc2)NC(=O)[C@H](Cc2c[nH]cn2)NC1=O [lutetium-177 labelled] | – | C57 mouse, female, brain | intravenous, 0.037 MBq, 4 h | – | tissue uptake | 0.09 ± 0.03 %ID/g |
| N=C(N)NCCC[C@@H]1NC(=O)[C@H](CCCCNC(=O)CNC(=O)CNC(=O)CNC(=O)CC[C@H](NC(=O)CNC(=O)CNC(=O)CNC(=O)CN2CCN(CC(=O)O)CCN(CC(=O)O)CCN(CC(=O)O)CC2)C(=O)NCC(=O)NCC(=O)NCC(=O)NCCCC[C@@H]2NC(=O)[C@@H](Cc3ccccc3)NC(=O)[C@H](CC(=O)O)NC(=O)CNC(=O)[C@H](CCCNC(=N)N)NC2=O)NC(=O)[C@@H](Cc2ccccc2)NC(=O)[C@H](CC(=O)O)NC(=O)CNC1=O [indium-111 labelled] | – | female athymic nu/nu mice, muscle | intravenous, 111 kBq, 24 h | – | tissue uptake | 0.3 ± 0.09 %ID/g |
| Cc1cc(-c2ccc(NC(=O)[C@H](CCCCNC(=O)CCN3C(=O)CC(SCCC(=O)N[C@H](Cc4ccccc4)C(=O)N[C@H]4CSSC[C@@H](C(=O)N[C@H](C(=O)O)[C@@H](C)O)NC(=O)[C@H]([C@@H](C)O)NC(=O)[C@H](CCCCN)NC(=O)[C@@H](Cc5c[nH]c6ccccc56)NC(=O)[C@H](Cc5ccc(O)cc5)NC4=O)C3=O)NC(=O)CN3CCN(CC(=O)O)CCN(CC(=O)O)CCN(CC(=O)O)CC3)c(C)c2)ccc1N=Nc1ccc2c(S(=O)(=O)O)cc(S(=O)(=O)O)c(N)c2c1O (stereo partly drawn) [gallium-68 labelled] | micro-PET | male BALB/c nude mouse, AR42J xenograft, tumour and kidney | intravenous, 7.4 MBq, 4 h | baseline: tumour over kidney | tumour-to-tissue uptake ratio | 1.16 ± 0.19 |
| N=C(N)NCCC[C@@H]1NC(=O)[C@H](CCCCNC(=O)CC[C@H](NC(=O)CC[C@H](NC(=O)CN2CCN(CC(=O)O)CCN(CC(=O)O)CCN(CC(=O)O)CC2)C(=O)N[C@@H](CCC(=O)NCCCC[C@@H]2NC(=O)[C@@H](Cc3ccccc3)NC(=O)[C@H](CC(=O)O)NC(=O)CNC(=O)[C@H](CCCNC(=N)N)NC2=O)C(=O)NCCCC[C@@H]2NC(=O)[C@@H](Cc3ccccc3)NC(=O)[C@H](CC(=O)O)NC(=O)CNC(=O)[C@H](CCCNC(=N)N)NC2=O)C(=O)NCCCC[C@@H]2NC(=O)[C@@H](Cc3ccccc3)NC(=O)[C@H](CC(=O)O)NC(=O)CNC(=O)[C@H](CCCNC(=N)N)NC2=O)NC(=O)[C@@H](Cc2ccccc2)NC(=O)[C@H](CC(=O)O)NC(=O)CNC1=O [indium-111 labelled] | – | female athymic nu/nu mice, muscle | intravenous, 111 kBq, 1 h | – | tissue uptake | 1.22 ± 0.45 %ID/g |
| COc1ccc2cc([C@H](C)C(=O)N[C@H](Cc3ccccc3)C(=O)N[C@H](Cc3ccccc3)C(=O)N[C@H](Cc3ccc(O)cc3)C(=O)O)ccc2c1 | oscillatory rheology | hydrogel 0.8 wt% | – | – | critical strain | 1.6% |
| CCCC[C@H](NC(=O)COCCOCCNC(=O)CN1CCN(CC(=O)O)CCN(CC(=O)O)CC1)C(=O)N[C@H]1CC(=O)NCCCC[C@@H](C(N)=O)NC(=O)[C@H](Cc2c[nH]c3ccccc23)NC(=O)[C@H](CCCNC(=N)N)NC(=O)[C@@H](Cc2ccccc2)NC(=O)[C@H](Cc2c[nH]cn2)NC1=O [copper-64 labelled] | – | C57 mice, stomach | intravenous, 0.37 MBq, 4 h | – | tissue uptake | 0.92 ± 0.27 %ID/g |
| CCCC[C@H](NC(=O)CNC(=O)CNC(=O)CN1CCN(CC(=O)O)CCN(CC(=O)O)CC1)C(=O)N[C@H]1CC(=O)NCCCC[C@@H](C(N)=O)NC(=O)[C@H](Cc2c[nH]c3ccccc23)NC(=O)[C@H](CCCNC(=N)N)NC(=O)[C@@H](Cc2ccccc2)NC(=O)[C@H](Cc2c[nH]cn2)NC1=O [technetium-99m labelled] | – | C57 mouse, kidney | iv, 0.037 MBq, 0.5 h | – | tissue uptake | 7.16 ± 0.79 %ID/g |
| N=C(N)NCCC[C@H](NC(=O)[C@@H]1CSSC[C@H](NC(=O)[C@H](Cc2ccc3ccccc3c2)NC(=O)[C@H](CCCNC(=N)N)NC(=O)[C@H](CCCNC(=N)N)NC(=O)CN2CCN(CC(=O)O)CCN(CC(=O)O)CC2)C(=O)N[C@@H](Cc2ccc(O)cc2)C(=O)N[C@@H](CCCNC(N)=O)C(=O)N[C@@H](CCCCN)C(=O)N[C@H](CCCCN)C(=O)N2CCC[C@H]2C(=O)N[C@@H](Cc2ccc(O)cc2)C(=O)N[C@@H](CCCNC(=N)N)C(=O)N[C@@H](CCCNC(N)=O)C(=O)N1)C(N)=O [gallium-68 labelled] | – | human | 5 mCi, per injection | – | effective dose | 4.7 mSv |
| CCCC[C@H](NC(=O)CCCCCCCNC(=O)CN1CCN(CC(=O)O)CCN(CC(=O)O)CC1)C(=O)N[C@H]1CC(=O)NCCCC[C@@H](C(N)=O)NC(=O)[C@H](Cc2c[nH]c3ccccc23)NC(=O)[C@H](CCCNC(=N)N)NC(=O)[C@@H](Cc2ccccc2)NC(=O)[C@H](Cc2c[nH]cn2)NC1=O [copper-64 labelled] | – | C57 mice, skin | intravenous, 0.37 MBq, 4 h | – | tissue uptake | 0.11 ± 0.06 %ID/g |

A few entries again:
| Compound | test | test system | setting | how to read | endpoint | value |
| --- | --- | --- | --- | --- | --- | --- |
| Cc1cc(-c2ccc(NC(=O)[C@H](CCCCNC(=O)CCN3C(=O)CC(SCCC(=O)N[C@H](Cc4ccccc4)C(=O)N[C@H]4CSSC[C@@H](C(=O)N[C@H](C(=O)O)[C@@H](C)O)NC(=O)[C@H]([C@@H](C)O)NC(=O)[C@H](CCCCN)NC(=O)[C@@H](Cc5c[nH]c6ccccc56)NC(=O)[C@H](Cc5ccc(O)cc5)NC4=O)C3=O)NC(=O)CN3CCN(CC(=O)O)CCN(CC(=O)O)CCN(CC(=O)O)CC3)c(C)c2)ccc1N=Nc1ccc2c(S(=O)(=O)O)cc(S(=O)(=O)O)c(N)c2c1O (stereo partly drawn) [gallium-68 labelled] | micro-PET | male BALB/c nude mouse, AR42J xenograft, tumour and kidney | intravenous, 7.4 MBq, 4 h | baseline: tumour over kidney | tumour-to-tissue uptake ratio | 1.16 ± 0.19 |
